{"data": "Measurements of several laboratories", "cell line": "U-937", "note": "Compare with care: the assays were run in different laboratories."}
{"Structure (SMILES)": "CCOc1cncc(-c2ccc(NC(=O)C3(c4ccnc(NS(=O)(=O)C5CC5)n4)CCOCC3)nc2)n1", "assay": "cell proliferation, CellTiter-Glo", "conditions": "72 h", "endpoint": "IC50", "result": "21 nM"}
{"Structure (SMILES)": "NC(=O)c1ccc(-c2ccccc2Cl)c2c3c([nH]c12)CC[C@H](N)C3", "assay": "cell growth or viability", "endpoint": "IC50", "result": "13.9 nM"}
{"Structure (SMILES)": "CC(C)c1ccc(N(C)c2ccc3c(c2)OCC[C@H]3CNc2cnccc2C(=O)O)cc1", "assay": "cell growth or viability, ATP luminescence", "conditions": "7 days", "endpoint": "IC50", "result": "2.55 nM"}
{"Structure (SMILES)": "CN1CCC(N[C@@H]2CCc3[nH]c4c(C(N)=O)ccc(-c5ccccc5Cl)c4c3C2)CC1", "assay": "cell growth or viability", "endpoint": "IC50", "result": "2.26 nM"}
{"Structure (SMILES)": "Cc1[nH][n+]([Pd-2]([Br])([Br])[n+]2[nH]c(C)c(CSCc3ccccc3)c2C)c(C)c1CSCc1ccccc1", "assay": "cytotoxicity", "how to read": "baseline: IC50 HEK293 over IC50 U-937", "endpoint": "selectivity index", "result": 1.4}
{"Structure (SMILES)": "CC1CCC2C(C)C(OC(=O)CCC(=O)OCCOCCOC(=O)N3CCC(Nc4ccc(S(=O)(=O)NC(=O)c5ccc(N6CCN(CC7=C(c8ccc(Cl)cc8)CC(C)(C)CC7)CC6)cc5Oc5cnc6[nH]ccc6c5)cc4[N+](=O)[O-])CC3)OC3OC4(C)CCC1C32OO4 (stereo not shown)", "assay": "cell growth or viability", "endpoint": "GI50", "result": "620 nM"}
{"Structure (SMILES)": "Cc1[nH][n+]([Pt-2]([Cl])([n+]2[nH]c(C)c(CSCc3ccccc3)c2C)[n+]2[nH]c(C)c(CSCc3ccccc3)c2C)c(C)c1CSCc1ccccc1.[Cl-]", "assay": "cytotoxicity", "how to read": "baseline: IC50 HEK293 over IC50 U-937", "endpoint": "selectivity index", "result": 1.6}
{"Structure (SMILES)": "CC1CCC2C(C)C(OC(=O)CCC(=O)OCCOC(=O)N3CCC(Nc4ccc(S(=O)(=O)NC(=O)c5ccc(N6CCN(CC7=C(c8ccc(Cl)cc8)CC(C)(C)CC7)CC6)cc5Oc5cnc6[nH]ccc6c5)cc4[N+](=O)[O-])CC3)OC3OC4(C)CCC1C32OO4 (stereo not shown)", "assay": "cell growth or viability", "endpoint": "GI50", "result": "380 nM"}
{"Structure (SMILES)": "Cc1[nH][n+]([Pd-2]([Br])([Br])[n+]2[nH]c(C)c(CSC3CCCCC3)c2C)c(C)c1CSC1CCCCC1", "assay": "cytotoxicity", "how to read": "baseline: IC50 HEK293 over IC50 U-937", "endpoint": "selectivity index", "result": 3.1}
{"Structure (SMILES)": "CNS(=O)(=O)Nc1nccc(Cc2c(C)c3ccc(Oc4ncccc4F)cc3oc2=O)c1F", "assay": "cell viability", "conditions": "7 days", "endpoint": "IC50", "result": "> 1000 nM"}
{"note": "Repeated from above:"}
{"Structure (SMILES)": "Cc1[nH][n+]([Pt-2]([Cl])([n+]2[nH]c(C)c(CSCc3ccccc3)c2C)[n+]2[nH]c(C)c(CSCc3ccccc3)c2C)c(C)c1CSCc1ccccc1.[Cl-]", "assay": "cytotoxicity", "how to read": "baseline: IC50 HEK293 over IC50 U-937", "endpoint": "selectivity index", "result": 1.6}
